Assay results of several laboratories.
Numbered parts are unrelated; each lists some results of a single study.

Study 1 — method: RNA Bind-n-Seq; molecule type: RNA; sample: in vitro; tested at: 365 nM; reference: no-protein control; direction: higher = stronger binding
Target: RNA binding protein fox-1 homolog 2, RRM domain, GST-SBP tag (RBFOX2, Homo sapiens, UniProt O43251-10, residues 100-194)
Notes: natural RNA segment, single round, ends assumed
Shared flanks, not repeated: GGGAGUUCUACAGUCCGACGAUC … UGGAAUUCUCGGGUGCCAA
Target sequence (chain): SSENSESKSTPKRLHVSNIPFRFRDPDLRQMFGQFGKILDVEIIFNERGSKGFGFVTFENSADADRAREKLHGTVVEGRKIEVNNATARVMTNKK
Strand | RBNS enrichment (R)
GUGGCAGGGGGUCACACCAGGCAGAACACCAUACACUCUCCAUCAGCUGUCUGUCUGGAUGUCACUGUCCUUCCCGGGGCUGUAUAGAGGGCCACAUGUGUUCACUAUUC | 0.329
AGUGACUACACUGGUGUCUGACUUUUUUCCUAGAGAUUUCUCCCUGAAAAAUACAAGGGCUGUUGGUGAGAGCAGACUUGAGGUGAUGAUAGUUGGCCUCUGGUCUACAA | 1.01
UUAGCAGGGGUGACUUUGUCUCUCCUGGCUGGGCCAUCCUUCCGCCAAUCUGGCCCUUACACACUCAGGCCUGUGCCCACUCCCUAUCUCCUUCCCACCCCUACACACAC | 0.768
AAGGACAAAUAAAUAAUUGUGGUUGUGUUCUUAAUGGGGACGAGCAGACACACUGAUCUGAACAUCUGGCCCAAGUGAAGCAUGGCAUAUAGUGCCCUUGGAAGAAAAUU | 1.68
AGAGGUGGACGCGGCCGAGAGCCCUACAGAGAAGCUGGCUGGUAGGACCCGCAGGGACCAGCUGACCAGGCUUGUGCUCAGAGAAGCAGACAAAACAAAGAUUCAAGGUU | 0.432
CCUGUCACUUGCACAGAGGCCAGUCCCACUAAGGUGACCAGAGUGGGCUCCAAGCACAAACUGCCAUUGGCUAUAGAUGGGACUGUGUCCCCCCAAAAUUCAUGUGUUGG | 0.659
CGCAGUGGACUGUGUCCCUCGGUGCAGAAACUACCAGAUUUGAGGGACGAGGUCAAGGAGAUAUGAUAGGCCCGGAAGUUGCUGUGCCCCAUCAGCAGCUUGACGCGUGG | 1.29
GGCAUGUAUCUGUAGUUCCUUGCUGAGUAACAAGAAGUAAAAUACAUGUUUGUAUAUCUACAUUUACAUUCUGCGCCCCAGAGCUAAGACAGACUGCGAAUCACUUUUCU | 1.88
UAUAAAUGUUUGUCUGGAUUGGCUAUAACAUGUCUUUCAGCAUUAGGCUUUUAAGAAACACAGGGUUUUGUAUUCUUUACUAAAGAUAUCAGAGCUCUUAAUGUUGCUUA | 0.255
AGACAGAUGAUUACUAUGCCUCAUGUGCUGUGUGCUCUUUGAAAGGAAUGACAGCAGACUACAAAGCAAAUAAGAUAUACUGAGCCUCAACAGAUUGCCUGCUCCUCAGA | 0.377
CUAGACAGUAUUGCCACCUCUGGCCAAAUAUGCACUUUCCCUAGAAAGCCAUAUUCCAGCAGUGAAACUUGUGCUAUAGUGUAUACCACCUGUACAUACAUUGUAUAGGC | 0.203
CAGCCCCCAUACUGACAGACGGACAGACAGACAUGCAAACACCAGACUGAAGCACAUGUAAUAUAGACCGUGUAUGUUUACAAUGUUGUGUAUAAAUGGGACAACUCCUC | 0.419

Study 2 — method: RNA Bind-n-Seq; molecule type: RNA; sample: in vitro; tested at: 200 nM; notes: whole 134-nt RNA, ends assumed; together with: 150 mM KCl; reference: input library; direction: higher = stronger binding
Target: Fragile X messenger ribonucleoprotein 1, C-terminal low-complexity region (Fmr1, Mus musculus, UniProt P35922)
Shared flanks, not repeated: GGGAGUUCUACAGUCCGACGAUC … UGGAAUUCUCGGGUGUCAAGG
Strand | log2 enrichment
CUCAAGUCCUGUGCUACACAUCGUAUGUACCGAAUCGGCCGGGGCCGGGCCGGAAAGUAUUAUGUUACGCCGUUCGGAUCUGCACUUCCA | -0.187
UCCUGUGCUACACAUCGUAUGUACCGAAUCGGGCCCCCCGGGCCCCCCGGGGCCCCCCGGAAAGUAUUAUGUUACGCCGUUCGGAUCUGC | -0.46
UCAAGUCCUGUGCUACACAUCGUAUGUACCGAAUCGGGGUUGGGGUUGGGUUGGGAAAGUAUUAUGUUACGCCGUUCGGAUCUGCACUUC | 1.15
GUCCUGUGCUACACAUCGUAUGUACCGAAUCGGUUUUUUGGUUUUUUGGGGUUUUUUGGAAAGUAUUAUGUUACGCCGUUCGGAUCUGCA | -0.513
CACAAACAACACGCACCCACACAGACACAGAGGGAAGGGGUUGGGAUGGGGACAGGGUGCACAGCAGGGCGGGGUAGGACCCCAGCCCCU | 1.28
AGUCCUGUGCUACACAUCGUAUGUACCGAAUCGGAAAAAAAGGUUUUUUUGGUUUGGAAAGUAUUAUGUUACGCCGUUCGGAUCUGCACU | -1.48
UCCUGUGCUACACAUCGUAUGUACCGAAUCAAACCCAAACCCCCCCAAAUUUUUUUAAAAAAGUAUUAUGUUACGCCGUUCGGAUCUGCA | 0.0509
GCAGGAAGUAAAAACAAAUGGAGAUGCUUCGGAUAGUGGCAGGGGUGGGGGUUGCUAAGGAAAGGGUGGGAUGGGAGUGGGUAAAGAGUU | 0.317
GAGGAGAUAAUCUCGGAAAAGUUACGGAAACCUGGGAAGUCGGCGAAACCCUACGUUCGGGUGUUUUCGGAAGCAGCCGAAGCGGCCGCC | -0.302
ACCAUGCAGGUGGGCAUCUUUGGGAGGUGGGGCAAGGGGGGGAUAGGGAGGGGGGUAACACUUUGGGAACAGGUGGUCCCAGGUCGUUUC | 0.928

Study 3 — method: protein binding microarray; molecule type: double-stranded DNA, one strand shown; sample: in vitro; tested at: not given; reference: not given; direction: higher = stronger binding
Target: Histone acetyltransferase KAT6A, winged helix 2, GST fusion (KAT6A, Homo sapiens, UniProt Q92794, residues 85-181)
Notes: 8-mer, flanks averaged, mean of 2 arrays, mostly near background
Residues (chain): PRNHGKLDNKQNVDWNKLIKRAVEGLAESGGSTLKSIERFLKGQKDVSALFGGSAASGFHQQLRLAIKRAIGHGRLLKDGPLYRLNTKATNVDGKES
Strand | E-score
GGATGATA | 0.0209
AAGGGGGA | -0.0709
AAACAAAC | 0.113
CCCTTATC | -0.104
AAAACCTC | 0.0798
AACCAAGG | 0.00978
ATAAGTAC | -0.173
ATCGTGAG | 0.00486
GCAACACC | 0.00987
AACTGCCT | 0.0208
CGCTTGAA | 0.115
CACGGTCC | -0.153
GTCAAATA | 0.154

Other studies, line by line
Molecule | target | test | system | setting | scale | measurement | result
PhoQ, residues 284 288 289 292 302 303 AEGLLW | PhoP, residues 12 14 15 18 19 STWGI (Escherichia coli, UniProt P23836) | Sort-seq, measured: YFP reporter | E. coli | PhoQ-PhoP variant library, together with: 10 µM Mg2+ | reference: high Mg2+ state, higher = stronger signaling | fold induction | 1.5

A few entries again (study 3):
Strand | E-score
AAAACCTC | 0.0798
AACCAAGG | 0.00978
ATAAGTAC | -0.173
